{"data": "Measured values gathered from unrelated publications", "note": "Numbered parts are unrelated; each lists some results of a single study."}
{"data": "Set 1", "target": "RING finger protein unkempt homolog, zinc fingers 1-6, GST-SBP tag (UNK, Homo sapiens, UniProt Q9C0B0, residues 30-357)", "technique": "RNA Bind-n-Seq", "molecule type": "RNA", "matrix": "in vitro", "tested at": "not given", "notes": "RNA with constant flanks, human and mouse sites, ends assumed", "baseline": "input RNA pool", "direction": "higher = stronger binding", "constant ends, left off below": "GGGAGUUCUACAGUCCGACGAUC … CAACAGAGGAUUGAGCAUCA", "Target sequence (chain)": "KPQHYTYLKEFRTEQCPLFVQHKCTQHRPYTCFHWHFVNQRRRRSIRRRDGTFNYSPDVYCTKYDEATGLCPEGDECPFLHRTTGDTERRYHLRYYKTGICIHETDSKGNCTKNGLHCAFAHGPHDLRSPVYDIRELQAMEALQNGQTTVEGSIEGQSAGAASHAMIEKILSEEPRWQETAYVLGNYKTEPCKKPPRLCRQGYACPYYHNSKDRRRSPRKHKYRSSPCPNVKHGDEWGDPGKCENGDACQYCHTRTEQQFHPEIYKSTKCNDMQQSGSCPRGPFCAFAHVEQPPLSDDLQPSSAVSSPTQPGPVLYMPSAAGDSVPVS"}
{"Oligonucleotide": "GACAGUGAAGGCCCACUGUGUGAAUUGCUUUUUUUCUUCCUGACUGCAAUCUUCCAGGCAAUAGCUGAAGAAGAAGAGGAAGUAGCCAAAGAGCAACUAACUGAUGCUGACACCAAAGAU", "bound/input enrichment": "0.0707 ratio"}
{"Oligonucleotide": "CCAGAAUAUGUUUUGGCUUAUAUUGACUAUCUCUCUCACCUCAAUGAGGACAAUAAUACUCGAGUUUUGUUUGAAAGAGUUCUAACGUCUGGAAGCCUUCCUCCUGAGAAGUCUGGAGAA", "bound/input enrichment": "0.185 ratio"}
{"Oligonucleotide": "AACAAAGAUUAUCACCAGGAUGUGCGUAAUAACUUUUUGCCACCAAUUAUUGCACGUUUUAUUAGAGUGAAUCCUACCCAAUGGCAGCAGAAAAUUGCCAUGAAAAUGGAGCUGCUCGGA", "bound/input enrichment": "0.285 ratio"}
{"Oligonucleotide": "AAAUCAGAACGUCCAUGUGAUGAAGACAAGACUGAUUCAGAGACAGGAAAGUUGAUCAUGUUAGUCAAUGAGUUUUAUUAUGGAAGGCAUGAAGGAGUCACUGAGAAAGAGCCAAAGACU", "bound/input enrichment": "0.308 ratio"}
{"Oligonucleotide": "AACCGGUGCAUGGUAGAAAUUGUCCAGAAAUAUGACCCAGAAAAAGACGAGUGGCAUAAAGUUUUUGAUCUUCCUGAGUCGCUGGGUGGCAUUCGGGCUUGCACUCUCACAGUUUUUCCA", "bound/input enrichment": "0.144 ratio"}
{"Oligonucleotide": "GGGUUCUAUGAAUUUUUAAAUUGGUUUGAUGAAAGAGCAUGGUAUCCACUAGGAAGAAUAGUAGGUGGUACUGUUUACCCAGGGUUGAUGAUAACCGCUGGCCUUAUUCAUUGGAUUUUA", "bound/input enrichment": "0.421 ratio"}
{"data": "Set 2", "target": "Centromere-binding protein 1, full length, His-tagged (CBF1, Saccharomyces cerevisiae, UniProt P17106, residues 1-351)", "technique": "competition protein-binding microarray", "molecule type": "double-stranded DNA, one strand shown", "matrix": "in vitro", "tested at": "2 µM", "notes": "whole 60-bp probe, lowest competitor level", "with": "Pho4 competitor, 0.05 µM", "direction": "higher = stronger binding", "constant ends, left off below": "… GTCTTGATTCGCTTGACGCTGCTG", "UniProt P17106, sequence (whole entry, looked up)": "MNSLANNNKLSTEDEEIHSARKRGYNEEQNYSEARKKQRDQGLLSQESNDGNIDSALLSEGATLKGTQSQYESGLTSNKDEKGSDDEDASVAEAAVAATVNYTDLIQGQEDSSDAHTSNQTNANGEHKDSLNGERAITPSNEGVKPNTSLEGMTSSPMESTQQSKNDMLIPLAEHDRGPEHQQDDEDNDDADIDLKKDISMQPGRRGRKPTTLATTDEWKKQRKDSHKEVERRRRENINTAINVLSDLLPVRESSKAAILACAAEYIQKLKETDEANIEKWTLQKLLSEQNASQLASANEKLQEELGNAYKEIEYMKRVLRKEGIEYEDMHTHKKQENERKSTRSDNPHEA"}
{"Oligonucleotide": "AAATTTTTACTAGGACACGTGTAACACAGCTCCATG", "fluorescence intensity": "1390 a.u."}
{"Oligonucleotide": "TTGAGAGTTTCCCATCACGTGGTCGCCTTGCATCGC", "fluorescence intensity": "5270 a.u."}
{"Oligonucleotide": "GGAAAAGGAAAGCCAAATGTGACGGACTCAGACTAC", "fluorescence intensity": "67.5 a.u."}
{"Oligonucleotide": "GATAAGCTAACGAACCTCATGACGCACAAGGACGAA", "fluorescence intensity": "97.2 a.u."}
{"Oligonucleotide": "GTCTTGTCTCATTGCTCTGTGGGTGTCCCCACTTCA", "fluorescence intensity": "73.1 a.u."}
{"Oligonucleotide": "CTTTCCCGATCTTGGCCCGTGGGTGTAGCACATTTG", "fluorescence intensity": "67.7 a.u."}
{"Oligonucleotide": "TGAAAAGATGAATCGCACGTGAACCATATTATAATC", "fluorescence intensity": "1590 a.u."}
{"Oligonucleotide": "TGCGCAACAACTTGAACTGTGGGTGTATGTCTAGAA", "fluorescence intensity": "65.2 a.u."}
{"data": "Set 3", "target": "Prothrombin, mature alpha-thrombin (F2, Homo sapiens, UniProt P00734)", "technique": "aptamer microarray, sandwich", "molecule type": "DNA with 2'F-ANA", "matrix": "in vitro", "tested at": "200 nM", "notes": "whole 15-mer aptamer, many near background", "with": "Cy3 exosite-II aptamer, 400 nM", "direction": "higher = stronger binding", "oligonucleotide": "GGTTGGTGTGGTTGG"}
{"Modification": "2'F-ANA at 1 4 6 7 8 12", "mean fluorescence intensity [a.u.]": 317}
{"Modification": "2'F-ANA at 2 4 5 7 10 11 13", "mean fluorescence intensity [a.u.]": 45.8}
{"Modification": "2'F-ANA at 1 2 6 7 10 11 12", "mean fluorescence intensity [a.u.]": 63.5}
{"Modification": "2'F-ANA at 3 4 5 8 9 12 13 14", "mean fluorescence intensity [a.u.]": 96.9}
{"Modification": "2'F-ANA at 5 7 9 10 12 13", "mean fluorescence intensity [a.u.]": 49.1}
{"Modification": "2'F-ANA at 1 4 6 7 10 11 13 15", "mean fluorescence intensity [a.u.]": 56.5}
{"data": "Other studies, line by line"}
{"Substance": "PhoQ, residues 284 288 289 292 302 303 GASLAW", "target": "PhoP, residues 12 14 15 18 19 LQHIR (Escherichia coli, UniProt P23836)", "test": "Sort-seq, measured: YFP reporter", "system": "E. coli", "conditions": "PhoQ-PhoP variant library, with: 10 µM Mg2+", "scale": "baseline: high Mg2+ state, higher = stronger signaling", "endpoint": "fold induction", "result": 1.26}
{"note": "Repeated from above (set 1):"}
{"Oligonucleotide": "GACAGUGAAGGCCCACUGUGUGAAUUGCUUUUUUUCUUCCUGACUGCAAUCUUCCAGGCAAUAGCUGAAGAAGAAGAGGAAGUAGCCAAAGAGCAACUAACUGAUGCUGACACCAAAGAU", "bound/input enrichment": "0.0707 ratio"}
{"Oligonucleotide": "CCAGAAUAUGUUUUGGCUUAUAUUGACUAUCUCUCUCACCUCAAUGAGGACAAUAAUACUCGAGUUUUGUUUGAAAGAGUUCUAACGUCUGGAAGCCUUCCUCCUGAGAAGUCUGGAGAA", "bound/input enrichment": "0.185 ratio"}
